Measurements pooled from the literature.
Every numbered part comes from another study and shows a few of its results, in no order.

Study 1 — technique: universal PBM; form: double-stranded DNA, one strand shown; matrix: in vitro; tested at: not given; reading: higher = stronger binding
Target: Sal-like protein 4, full length isoform B (SALL4, Homo sapiens, UniProt Q9UJQ4-2, residues 1-616)
Notes: 8-mer, flanks averaged, mean of replicates
Construct (chain): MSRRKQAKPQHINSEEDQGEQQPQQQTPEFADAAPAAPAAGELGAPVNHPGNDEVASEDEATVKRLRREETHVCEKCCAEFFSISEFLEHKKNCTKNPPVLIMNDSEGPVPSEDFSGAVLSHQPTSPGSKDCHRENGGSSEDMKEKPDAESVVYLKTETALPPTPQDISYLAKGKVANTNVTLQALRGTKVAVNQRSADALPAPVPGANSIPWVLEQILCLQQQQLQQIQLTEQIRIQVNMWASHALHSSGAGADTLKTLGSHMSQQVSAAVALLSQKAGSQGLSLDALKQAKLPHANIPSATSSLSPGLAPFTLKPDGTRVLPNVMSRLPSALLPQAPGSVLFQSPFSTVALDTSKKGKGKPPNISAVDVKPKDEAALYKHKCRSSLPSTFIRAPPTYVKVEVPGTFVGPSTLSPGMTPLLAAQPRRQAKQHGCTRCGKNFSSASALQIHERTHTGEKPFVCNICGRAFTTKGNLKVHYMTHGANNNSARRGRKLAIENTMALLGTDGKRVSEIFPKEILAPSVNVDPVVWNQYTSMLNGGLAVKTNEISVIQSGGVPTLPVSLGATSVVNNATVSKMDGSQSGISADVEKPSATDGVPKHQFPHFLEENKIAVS
| Oligonucleotide | E-score |
| --- | --- |
| GTATAAGA | 0.238 |
| AATCAGAC | 0.0947 |
| GACATAGC | 0.159 |
| CTGCATAC | 0.0355 |
| CAAAAGGC | -0.224 |
| TCCATCGA | 0.0258 |
| GAAAGAAC | -0.00436 |
| CCAATTTC | 0.169 |

Study 2 — technique: protein-binding microarray; form: double-stranded DNA, one strand shown; matrix: in vitro; tested at: 2200 nM top; notes: 60-bp whole probe; together with: salmon DNA 0.4 mg/ml; baseline: random background probes; reading: higher = stronger binding; shared flanks, not repeated: GCCTAGCAC … GTCTTGATTCGCTTGACGCTGCTG
Target: Interferon regulatory factor 7, full length, phosphomimetic (IRF7, Homo sapiens, UniProt Q92985, residues 1-503, S471D/S472D/S475D/S476D/S477D/S483D/S484D/S487D)
Target sequence (chain): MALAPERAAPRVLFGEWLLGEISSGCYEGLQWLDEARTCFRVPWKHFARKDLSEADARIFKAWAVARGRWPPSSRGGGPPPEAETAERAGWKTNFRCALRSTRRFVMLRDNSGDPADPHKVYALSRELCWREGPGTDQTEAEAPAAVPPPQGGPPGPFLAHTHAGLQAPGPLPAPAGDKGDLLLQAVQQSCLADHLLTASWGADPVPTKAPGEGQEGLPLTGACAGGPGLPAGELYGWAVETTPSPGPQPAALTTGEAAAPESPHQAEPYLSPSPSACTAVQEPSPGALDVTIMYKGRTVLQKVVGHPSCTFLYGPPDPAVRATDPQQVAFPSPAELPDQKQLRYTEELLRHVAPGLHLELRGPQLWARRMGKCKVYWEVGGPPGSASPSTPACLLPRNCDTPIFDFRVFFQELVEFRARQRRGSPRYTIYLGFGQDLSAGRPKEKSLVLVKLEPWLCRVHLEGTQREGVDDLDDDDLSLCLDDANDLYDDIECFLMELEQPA
| Oligonucleotide | fitted relative affinity |
| --- | --- |
| TCATTTTCAATTTTTGCACTGTGCTAG | 3.23 z-score |
| GCTCCTTTTAATTTTTAACGGTGCTAG | 1.56 z-score |
| CTAGGTTCCCTTTTCCTTTAGTGCTAG | 3.08 z-score |
| TTAGGACGGCTACTGCTTTAGTGCTAG | -0.494 z-score |
| CTGCATCTGATTTCTCAAACAGTGCTA | 0.69 z-score |
| GACGGACTGGGGACTGCGGACGTGCTA | -0.988 z-score |
| GACGGTCTCCAACTGCTGACGTGCTAG | 0.315 z-score |
| TTATGTATCGGTATCGGTTAGTGCTAG | 1.45 z-score |

Study 3 — technique: protein binding microarray; form: double-stranded DNA, one strand shown; matrix: in vitro; tested at: not given; baseline: not given; reading: higher = stronger binding
Target: Histone acetyltransferase KAT6A, both winged helices, GST fusion (KAT6A, Homo sapiens, UniProt Q92794, residues 1-181)
Notes: 8-mer, flanks averaged, mean of 2 arrays, mostly near background
Construct (chain): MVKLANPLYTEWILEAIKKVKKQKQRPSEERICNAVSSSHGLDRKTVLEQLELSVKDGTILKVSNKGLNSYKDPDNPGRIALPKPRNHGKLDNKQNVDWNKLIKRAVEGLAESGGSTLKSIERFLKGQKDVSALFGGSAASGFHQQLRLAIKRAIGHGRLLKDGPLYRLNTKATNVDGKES
| Oligonucleotide | E-score |
| --- | --- |
| AATGTTAT | -0.136 |
| AGAAGTGA | -0.0997 |
| CCGTCAGC | 0.213 |
| ACTATCTG | -0.205 |
| ATTCTAAG | -0.124 |
| CAAAAGTG | -0.0436 |

Mixed results
| Substance | target | assay | test system | conditions | scale | quantity | result |
| --- | --- | --- | --- | --- | --- | --- | --- |
| PhoQ, residues 284 288 289 292 302 303 QWQEDG | PhoP, residues 12 14 15 18 19 HEGLL (Escherichia coli, UniProt P23836) | Sort-seq, refers to: YFP reporter | E. coli | PhoQ-PhoP variant library, together with: 10 µM Mg2+ | baseline: high Mg2+ state, higher = stronger signaling | fold induction | 0.782 |

For quick reference, copied from above (study 1):
| Oligonucleotide | E-score |
| --- | --- |
| GAAAGAAC | -0.00436 |
| GTATAAGA | 0.238 |
